Published values collected from several papers.
Every numbered part comes from another study and shows a few of its results, in no order.

Sample 1 — method: universal PBM; molecule type: double-stranded DNA, one strand shown; sample: in vitro; tested at: not given; reading: higher = stronger binding
Target: Sal-like protein 4, full length isoform B (SALL4, Homo sapiens, UniProt Q9UJQ4-2, residues 1-616)
Notes: 8-mer, flanks averaged, mean of replicates
Residues (chain): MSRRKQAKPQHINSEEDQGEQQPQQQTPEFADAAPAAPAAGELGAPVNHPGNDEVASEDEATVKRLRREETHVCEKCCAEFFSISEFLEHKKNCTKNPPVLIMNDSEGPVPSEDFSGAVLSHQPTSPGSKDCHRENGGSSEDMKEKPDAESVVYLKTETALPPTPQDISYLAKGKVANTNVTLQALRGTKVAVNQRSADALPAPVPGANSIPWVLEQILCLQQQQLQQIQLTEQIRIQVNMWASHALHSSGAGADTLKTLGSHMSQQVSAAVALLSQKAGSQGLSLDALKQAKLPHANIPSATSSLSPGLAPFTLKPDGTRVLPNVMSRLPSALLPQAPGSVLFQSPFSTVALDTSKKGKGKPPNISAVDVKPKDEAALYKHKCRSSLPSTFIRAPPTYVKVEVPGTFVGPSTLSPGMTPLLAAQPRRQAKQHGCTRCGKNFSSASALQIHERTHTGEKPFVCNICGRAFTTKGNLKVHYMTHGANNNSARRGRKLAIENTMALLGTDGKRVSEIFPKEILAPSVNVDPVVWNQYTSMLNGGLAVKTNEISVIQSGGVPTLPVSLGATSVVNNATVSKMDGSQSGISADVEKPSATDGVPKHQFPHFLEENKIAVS
| Sequence | E-score |
| --- | --- |
| AACGTTCC | 0.0454 |
| CAAGGATA | 0.0915 |
| ATAACTGG | 0.187 |
| AGCCGTCC | -0.137 |
| AGCGATAA | 0.0759 |
| CCCCGGTA | -0.29 |
| TCTTAGAA | 0.196 |
| GTTTGCGA | 0.0783 |

Sample 2 — method: RNA Bind-n-Seq; molecule type: RNA; sample: in vitro; tested at: 365 nM; relative to: no-protein control; reading: higher = stronger binding
Target: RNA binding protein fox-1 homolog 2, RRM domain, GST-SBP tag (RBFOX2, Homo sapiens, UniProt O43251-10, residues 100-194)
Notes: natural RNA segment, single round, ends assumed
Constant ends, left off below: GGGAGUUCUACAGUCCGACGAUC … UGGAAUUCUCGGGUGCCAA
Target sequence (chain): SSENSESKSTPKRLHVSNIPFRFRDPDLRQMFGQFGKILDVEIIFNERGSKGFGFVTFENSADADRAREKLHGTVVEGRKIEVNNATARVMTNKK
| Sequence | RBNS enrichment (R) |
| --- | --- |
| UCUGCUGGUCAGAGAUGAAGCCACGCCUUUCCAUUUUUCAAUGCUGCAUAUUUAAUCUGCAACAAAAAUGUUAAGCCAUAACAGCCUUUUUAUAUUUUAGUUUGUCACCU | 0.716 |
| CCUUUUGAAAAGCUGUGUCGUGUUCCCUGUGAAACUGAGCAGGUGUGUGUUGGCGCGCUAAGUGCCACAUGCUUGUGUGUAGAGGAGGAGGUGGCCCUGCCGGCUCCGCG | 0.246 |
| AAGGUGAGAUAUAAAUGUAUAUAGACAUGUAGCUGAGGAUAUUAAUUUCAGUCUUAAAGUGUGACUUGUAAGGAGCCAAGCUGUACAGUUUAGUUCAUGAUGGCAGCUCU | 0.711 |
| GAUGGGCUUCUGUUCUCUGCUGAGGGCCAAUACCCUACUGUGGGGAGAGAUGGCACACCAGAUGCUUUUGUGAGAAAGGGAUGGUGGAGUGAGAGCCUUUGCCUUUAGGG | 0.202 |
| AAAGCCACUCUACUAUGAAUGUUAUUGGGGCUACACUUGCCUUUCUUGCCCAAGGGCCUCCUGCAUAGACCUUGUCGGUCAAAUCUUGAGUCCUUGUACAGAAAUGAUAG | 0.364 |
| GAAGAGGUUAUAAAGGGACAGAUGGUCAUAGAAACCUUUGCAGAGGCAGUUGUGCCAACCCAAGGGCUCUUUCAUUGUUCGUUGGCUUCUGUCUUUAAAGCCAAGAAAGU | 0.748 |
| UCUUACACUGUAAGCCUUGUUGCUUUGCCCCAACAAUUGUAAUUUGAUUAUAGCUAUGAGCCUUAUGGUAGACACUAUGUACCCUCUGCGGUGUAAUUGCAUUAUAGCUA | 0.916 |
| GAGUGGCCAUUUCCUUACCUUUGAUCCCUGUAAAGCAGAAAGGACUCCUUUGACAGGCGACAAACUACUGUGGUGAGCAGAAUGAUUUCCUUUUUCAAGACAACACCUGC | 0.552 |

Sample 3 — effect on: enzyme activity; mode: inhibitor; tested at: 20 µM
Target: Replicase polyprotein 1ab, main protease (rep, Severe acute respiratory syndrome coronavirus 2, UniProt P0DTD1)
| SMILES | inhibition [%] |
| --- | --- |
| O=C1NC(=O)C(c2ccccc2)N1 (centres unmarked) | 92 |
| CC(=O)O/N=C1/C(=O)N(Cc2cc(Cl)ccc2Cl)c2ccc(Cl)cc21 | 54.1 |
| O=C1/C(=C/c2ccc([N+](=O)[O-])cc2)CS(=O)(=O)C/C1=C\c1ccc([N+](=O)[O-])cc1 | -14.4 |
| COc1ccc2c(c1)nc([S+]([O-])Cc1ncc(C)c(OC)c1C)[n]2[Mg][n]1c([S+]([O-])Cc2ncc(C)c(OC)c2C)nc2cc(OC)ccc21 (centres unmarked) | -6.78 |

Sample 4 — method: protein binding microarray; molecule type: double-stranded DNA, one strand shown; sample: in vitro; tested at: not given; relative to: not given; reading: higher = stronger binding
Target: Histone acetyltransferase KAT6A, winged helix 2, GST fusion (KAT6A, Homo sapiens, UniProt Q92794, residues 85-181)
Notes: 8-mer, flanks averaged, mean of 2 arrays, mostly near background
Construct (chain): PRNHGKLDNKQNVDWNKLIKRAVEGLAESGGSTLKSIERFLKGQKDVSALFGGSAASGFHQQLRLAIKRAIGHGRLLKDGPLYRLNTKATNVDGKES
| Sequence | E-score |
| --- | --- |
| CCATCCAG | 0.072 |
| ACGGAGCT | -0.126 |
| TAAAGCTA | -0.111 |
| CCTAATCC | -0.166 |
| CGATCGTC | 0.0377 |
| CTATCGTC | -0.182 |
| CATCTATA | -0.126 |
| GCGGCTGA | -0.0365 |

Sample 5 — cell line: HEK-293T/ACE2; tested at: 10 µM; time: 16 h; relative to: vehicle
| SMILES | viability |
| --- | --- |
| CC(=O)c1ccc(S(=O)(=O)NC(=O)NC2CCCCC2)cc1 | 101% |
| COc1ccc2nc(SCc3ncc(C)c(OC)c3C)[nH]c2c1 | 105% |
| CN(C)CCC=C1c2ccccc2CCc2ccccc21 | 101% |

Sample 6 — effect on: enzyme activity; mode: inhibitor; tested at: 20 µM
Target: Replicase polyprotein 1ab, polymerase (rep, Severe acute respiratory syndrome coronavirus 2, UniProt P0DTD1)
| Structure (SMILES) | inhibition |
| --- | --- |
| C[C@H]1CCC/C=C/[C@@H]2C[C@H](O)C[C@H]2[C@H](O)/C=C/C(=O)O1 | 6.74% |
| CCCc1c(OCCCCc2nnn[nH]2)ccc(C(C)=O)c1O | -4.11% |
| CC(C)C[C@H](NC(=O)CNC(=O)c1cc(Cl)ccc1Cl)B1OC(=O)CC(CC(=O)O)(C(=O)O)O1 (some centres unmarked) | -2.9% |
| Cc1nc(N)sc1CCN | 0.53% |
| O=S(=O)(O)c1ccc(O)cc1 | -1.13% |
| Fc1ccccc1-c1nc2ccn(Cc3ccc(-c4ccc(C(F)(F)F)cc4C(F)(F)F)nn3)cc-2n1 | 3.12% |
| Nc1ccc(C(=O)NCC(=O)O)cc1 | -2.01% |
| C[C@]12CC[C@@H]3c4ccc(OS(=O)(=O)O)cc4CC[C@H]3[C@@H]1CCC2=O | -8.05% |
| C[C@@H](N)[C@@H](O)c1ccccc1 | 25.2% |
| Fc1ccc(-n2cc(CCCCN3CCC4(CC3)OCc3ccccc34)c3ccccc32)cc1 | -6.15% |
| N=C(N)Nc1ccc(C(=O)Oc2ccc3cc(C(=N)N)ccc3c2)cc1 | 6.91% |
| COc1ccc(C(=O)c2ccccc2O)c(O)c1 | 3.07% |
| CC(C)[C@@H](N)C(=O)O | -2.08% |
| CC[N+](C)(C)c1cccc(O)c1 | -1.5% |
| CC(=O)OCC(CCn1cnc2cnc(N)nc21)COC(C)=O | -4.58% |
| O=C(NC[C@H](O)CO)c1ccncc1Nc1ccc(I)cc1F | 2.57% |
| CC(C)C(N)=O | 3.34% |
| CC1(O)CCC(C(C)(C)O)CC1 (centres unmarked) | 2.06% |
| O[C@@](Cc1ncc(CC2(C(F)(F)F)CC2)[nH]1)(c1ccc(-n2cccn2)cc1)C(F)(F)F | -2.23% |
| O=P(O)(O)CP(=O)(O)O | 1.85% |
| COCCOc1cnc2ccn([C@H](C)c3nnc4c(F)cc(-c5cnn(C)c5)cn34)c(=O)c2c1 | 2.73% |
| O=c1[nH]c(=O)n([C@H]2C[C@H](O)[C@@H](CO)O2)cc1F | -1.63% |
| CNC(=O)[C@@H](NC(=O)[C@H](CC(C)C)[C@H](O)C(=O)NO)C(C)(C)C | -6.77% |
| CN(C)C(=O)COC(=O)Cc1ccc(OC(=O)c2ccc(NC(=N)N)cc2)cc1 | 2.32% |
| CCN(CCNC(=O)Nc1ccccc1Br)c1cccc(C)c1 | 19.4% |

Some of these lines once more (sample 3):
| SMILES | inhibition [%] |
| --- | --- |
| O=C1NC(=O)C(c2ccccc2)N1 (centres unmarked) | 92 |
| CC(=O)O/N=C1/C(=O)N(Cc2cc(Cl)ccc2Cl)c2ccc(Cl)cc21 | 54.1 |
| O=C1/C(=C/c2ccc([N+](=O)[O-])cc2)CS(=O)(=O)C/C1=C\c1ccc([N+](=O)[O-])cc1 | -14.4 |
| COc1ccc2c(c1)nc([S+]([O-])Cc1ncc(C)c(OC)c1C)[n]2[Mg][n]1c([S+]([O-])Cc2ncc(C)c(OC)c2C)nc2cc(OC)ccc21 (centres unmarked) | -6.78 |
